Results from different studies.
A part holds a random share of what one study measured. Changes are numbered by the printed parent chain.

Study 1
Target: Phosphate system positive regulatory protein PHO4, full length, GST-tagged (PHO4, Saccharomyces cerevisiae, UniProt P07270, residues 1-312)
Method: competition protein-binding microarray
Form: double-stranded DNA, one strand shown
Matrix: in vitro
Concentration: 2 µM
Setting: whole 60-bp probe, lowest competitor level
Together with: Cbf1 competitor, 0.05 µM
Reading: higher = stronger binding
Construct (chain): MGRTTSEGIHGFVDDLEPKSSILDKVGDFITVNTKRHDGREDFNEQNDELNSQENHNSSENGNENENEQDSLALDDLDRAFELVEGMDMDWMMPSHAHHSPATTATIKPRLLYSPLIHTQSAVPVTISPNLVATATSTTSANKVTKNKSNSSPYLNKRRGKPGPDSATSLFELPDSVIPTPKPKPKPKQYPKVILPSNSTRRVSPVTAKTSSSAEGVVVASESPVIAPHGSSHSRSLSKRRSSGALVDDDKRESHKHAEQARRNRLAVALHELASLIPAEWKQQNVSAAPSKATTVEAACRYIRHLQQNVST
Sequence | fluorescence intensity [a.u.]
GCAATTCTTAGAGGCCACGTGGGCAGAGAGCGGCGCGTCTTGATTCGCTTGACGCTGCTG | 20700
ACAGAATATCCCGACCACATGGCAAGACCAAGAAAGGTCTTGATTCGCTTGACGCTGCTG | 9910
TCACAACAGATATCCCACATGAGGCAGCGCTACCCAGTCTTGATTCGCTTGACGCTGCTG | 7200
AAATTACTAAGTTGCGTTGTGGGTGACGCCGTATGAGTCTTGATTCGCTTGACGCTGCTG | 4410
ATGGCATCTTGCGGGAACGTGCAAAAAAGCTCAATGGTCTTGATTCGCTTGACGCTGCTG | 13300
CTAACGAAGGTTTGGCGAGTGGGTGACAAGCCAAGTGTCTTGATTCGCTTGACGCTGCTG | 3950
CGTCCTAGTGATTTTCACGTGCCTTCCATGAGGAAGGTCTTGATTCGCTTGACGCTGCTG | 14600
GATGAGTGAGGAGAAAACGTGCAAATAATAAAATTAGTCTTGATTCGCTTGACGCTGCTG | 15100
GGAGACACTAATAAGCACGTGAGGGTTTTTGGACAAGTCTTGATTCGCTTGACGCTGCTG | 16500
CCTTCCGCCAAGGAGCACATGCGGCCCACTAAAACTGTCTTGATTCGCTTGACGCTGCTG | 11500
TGCATCCTCTCCGGCCACGTGGGTAGAGGTTTTACCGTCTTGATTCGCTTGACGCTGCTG | 19400
TCATTTTAGGCAGGGCCGGTACAGACCGCACCAATCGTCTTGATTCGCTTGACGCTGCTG | 2670
TGCGCAACAACTTGTACGGTGGGTGTATGTCTAGAAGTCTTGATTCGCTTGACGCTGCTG | 4690
CTTCTGTAAATTTGAACGGTGGGTGGACGCGCCCCGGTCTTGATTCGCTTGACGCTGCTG | 4310
GATTGATATATCGGCCACGTTTGAGGACCAAGTTGCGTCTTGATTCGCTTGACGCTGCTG | 10800
AAATTACTAAGTTGCATGGTGGGTGACGCCGTATGAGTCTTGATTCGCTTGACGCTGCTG | 5350
CATACCCAACCTTGGAAAGTGGGTGAAGATATTTGTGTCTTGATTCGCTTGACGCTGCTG | 3580
TGCGCAACAACTTTACACGTGTTTTTATGTCTAGAAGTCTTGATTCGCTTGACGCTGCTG | 17100
AAATTACTAAGTTGTTCGGTGGGTGACGCCGTATGAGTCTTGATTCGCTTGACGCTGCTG | 4320
AATCTTGAATGGAGTGACCTGAGACAAGGAGAGGCAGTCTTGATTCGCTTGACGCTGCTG | 2970
GATTTGAATCCAATTCACGTTTCAAGTCATTTTGCCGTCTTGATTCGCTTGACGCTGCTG | 7630

Study 2
Target: JDP2, bZIP domain (human)
Method: DHFR protein complementation
Matrix: yeast
Setting: single substitutions, most at no-binding floor
Relative to: wild-type JUN-FOS pair
Reading: higher = stronger binding
Starting sequence: JUN, bZIP domain (human); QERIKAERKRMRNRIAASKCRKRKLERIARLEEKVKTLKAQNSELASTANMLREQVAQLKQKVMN; partner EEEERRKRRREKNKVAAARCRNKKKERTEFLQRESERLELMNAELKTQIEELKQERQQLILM
Change | binding fitness [natural log]
A57W | 0.221
L31I | 0.219
L31T | 0.11
S47Q | 0.258
S47N | 0.274
Q41W | -0.4
I28W | 0.309
S47W | 0.211
E54Q | 0.0035
K34F | 0.2
K39P | -0.577
E44A | 0.273
A29D | 0.272

Study 3
Target: Hepatocyte nuclear factor 3-beta, forkhead domain (FOXA2, Homo sapiens, UniProt Q9Y261, residues 142-269)
Method: protein-binding microarray
Form: double-stranded DNA, one strand shown
Matrix: in vitro
Concentration: not given
Setting: k-mer, scored over probes, only values ≥0.25
Reading: higher = stronger binding
Residues (chain): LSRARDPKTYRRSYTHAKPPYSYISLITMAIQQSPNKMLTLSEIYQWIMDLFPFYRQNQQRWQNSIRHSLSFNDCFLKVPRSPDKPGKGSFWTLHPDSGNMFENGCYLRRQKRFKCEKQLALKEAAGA
Sequence | E-score
ACAGAATA | 0.313
AATGGTCA | 0.278
ATACATTG | 0.306
TCGATACA | 0.318
GTATTAGA | 0.275
CTTCAATA | 0.287
ATACGAAA | 0.266
AACCACAT | 0.255
GTCAACAC | 0.352
ATTATGTA | 0.33

Study 4
Target: Prothrombin, mature alpha-thrombin (F2, Homo sapiens, UniProt P00734)
Method: aptamer microarray, sandwich
Form: DNA with 2'F-ANA
Matrix: in vitro
Concentration: 200 nM
Setting: whole 15-mer aptamer, many near background
Together with: Cy3 exosite-II aptamer, 400 nM
Reading: higher = stronger binding
Sequence: GGTTGGTGTGGTTGG
Modification | mean fluorescence intensity
2'F-ANA at 1 4 5 6 8 10 11 13 | 45.9 a.u.
2'F-ANA at 7 8 10 11 13 14 | 100 a.u.
2'F-ANA at 1 2 3 4 8 9 13 15 | 114 a.u.
2'F-ANA at 1 4 5 9 11 12 13 15 | 77.9 a.u.
2'F-ANA at 1 3 4 6 11 12 | 303 a.u.
2'F-ANA at 2 4 5 7 10 11 15 | 47 a.u.
2'F-ANA at 1 3 6 7 10 12 14 15 | 61.2 a.u.
2'F-ANA at 1 7 12 13 14 15 | 76.1 a.u.
2'F-ANA at 3 4 5 10 11 12 13 14 15 | 61.4 a.u.
2'F-ANA at 5 6 11 12 14 | 56.7 a.u.
2'F-ANA at 1 3 6 7 9 10 13 14 15 | 64.5 a.u.
2'F-ANA at 1 2 4 6 8 13 15 | 89.6 a.u.
2'F-ANA at 2 4 7 8 11 | 408 a.u.
2'F-ANA at 3 6 7 8 9 10 11 13 | 418 a.u.
2'F-ANA at 1 3 4 8 10 11 12 13 15 | 65.6 a.u.
2'F-ANA at 2 3 4 5 6 8 10 12 13 15 | 47.3 a.u.
2'F-ANA at 1 3 4 5 6 8 10 11 13 14 | 48.5 a.u.
2'F-ANA at 1 3 7 8 9 10 11 14 | 58.8 a.u.
2'F-ANA at 1 2 3 4 5 6 7 8 9 10 13 15 | 51.1 a.u.
2'F-ANA at 2 3 4 5 8 10 13 | 56.7 a.u.

Study 5
Target: RNA binding protein fox-1 homolog 2, RRM domain, GST-SBP tag (RBFOX2, Homo sapiens, UniProt O43251-10, residues 100-194)
Method: RNA Bind-n-Seq
Form: RNA
Matrix: in vitro
Concentration: 365 nM
Setting: natural RNA segment, single round, ends assumed
Relative to: no-protein control
Reading: higher = stronger binding
Residues (chain): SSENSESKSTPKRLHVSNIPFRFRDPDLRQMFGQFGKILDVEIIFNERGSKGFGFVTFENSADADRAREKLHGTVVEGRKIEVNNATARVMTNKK
Sequence | RBNS enrichment (R)
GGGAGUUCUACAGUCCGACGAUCCCACUUUGCUGAAAAAUACUGUACAUGUGUAAAAUGUUCAGUUGUUUUUUUGUAAAAUAUAGAACAGUUGUAAUUGAUACUGGCCAAAAUCAAUGUUAUUCCAUAUUUUAUGGAAUUCUCGGGUGCCAA | 0.627
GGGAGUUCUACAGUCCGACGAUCCUCAGUGUGAUGUAUAAUGAUGCAACAGGGACCCUUGUAAAUUGUCAUACGCCAAUAAAAUGUCACAGUAAUAACUGCUGUUGUUUGUUUACCUGUGUCUAUUUCACACAUGGAAUUCUCGGGUGCCAA | 0.361
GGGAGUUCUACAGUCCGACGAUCGAACGACAUAAAGAAAGCUCUUCAAUCAAAUGAUUACUUGAUAAUUGAGACAUCACAUUAUUCAUCCUGUGUCCAAGACUCAGAUAUUCUGCCCCAGUCAAAAUCAUCUUUGGAAUUCUCGGGUGCCAA | 0.328
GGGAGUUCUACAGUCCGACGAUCCUGGACUUUGGUAUCUGAGGCAGAGGUGAACUGCAGGCCAGUGGCUCCUCUUGGGGAAAUUGUGUAUGUAUUCACUUAGGUCAAAGCCUGACCUUCGAGCAACCUCUCCUUGGAAUUCUCGGGUGCCAA | 0.379
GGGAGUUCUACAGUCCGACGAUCAGCGGUGGAUGCUGCAUAAUCCACCUGGGUACUUCAGCCUUGCGUUUCCACAGCCUUCAGCCUGUUCUAGAACGAUCACUGCCUUACCCCUGCUGCUGCAGUGGUGUGAGUGGAAUUCUCGGGUGCCAA | 0.347
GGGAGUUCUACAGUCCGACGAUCGAAGCUGGUGUUCGCUGUCCCCUGUGCACUUCUCGCACUGGGGCAUGGAGUGCCCAUGCAUACUCUGCUGCCGGUCCCCUCACCUGCACUUGAGGGGUCUGGGCAGUCCCUGGAAUUCUCGGGUGCCAA | 0.812
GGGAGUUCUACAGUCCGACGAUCACCGACAGCCCUUCUCUGCGGUUGUCUGACUGGACACACUUCCUGAAAUCAGGCCGUUUCCCUCCGCGUGCAUUGGUUUUGGUCUGUCUUUCAGUUCUGUUUCAAACUAGUGGAAUUCUCGGGUGCCAA | 0.62
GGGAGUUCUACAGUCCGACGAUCGAUCUGAGUGAGGCGUAGGAGGGAAGGCGCAUGGACUGGAACUUGCAAGUUGACUCUGGUUAUGCAAGAAUGUGUAACAGAUCAAGAGAUCCUCUCAAGUGUCUAUUAGAUGGAAUUCUCGGGUGCCAA | 1.75
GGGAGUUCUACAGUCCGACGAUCGAACUGCCAGCAGGGUUGCUUAGGAAAGGAAAUGGACCUUCUCUUCUCUUCUCUUCUUUGAGACAGGGUUUCACUCACUUUGUAACCCUAGCUGGCCUGGAAUUCACUAUUGGAAUUCUCGGGUGCCAA | 0.273
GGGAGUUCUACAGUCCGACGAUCUAAAAGAUACAUUCUCAUUGUUUUCCAACAGUGAUGGCUUCCACAUAAGGUUAAACAAACUAGGUGCUUGUAAAUAAUUUAUUACAGUUUACUCUAUCGCAUUUCUGUAAUGGAAUUCUCGGGUGCCAA | 0.405
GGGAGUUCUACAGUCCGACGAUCUGAUUGGUUUGACGUGUUUGGUUCAGUGUCACGCACUGAUACAUGUUCUCUGUAAUUACAUGUCACCACACCAGGCUUUAGUGGCCAGGAGGGAUUUGACCUUGUUCCCAUGGAAUUCUCGGGUGCCAA | 0.435
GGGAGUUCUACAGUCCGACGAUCCCCAGUAGUCCCUCCAUGACAGAAAACACUCCCAUGAGUCUCGAGGGAAAGCCAAGAAUAAAUGUCACUCCAGAACACAUUUUUUUUUAGCAAUAAAAUGGUGUCAAAUGUGGAAUUCUCGGGUGCCAA | 0.47

Study 6
Target: Sal-like protein 4, full length isoform B (SALL4, Homo sapiens, UniProt Q9UJQ4-2, residues 1-616)
Method: universal PBM
Form: double-stranded DNA, one strand shown
Matrix: in vitro
Concentration: not given
Setting: 8-mer, flanks averaged, mean of replicates
Reading: higher = stronger binding
Sequence | E-score
CTGTTCGC | -0.00025
GCCCCGTA | -0.191
CAAAAGTG | 0.0726
GCAGCAAC | -0.106
GGGACAAC | -0.214
AAAAAAGC | 0.181
CGAGGAGA | -0.234
TACATCCA | 0.217
GGGTATAA | 0.145
AGACGAGG | -0.269
GACTGGGA | -0.15
ACTTATTC | 0.247
AGGATACG | 0.0107
ATTCCTGA | 0.0984
ATTTTCTC | 0.0986
ATTACGTC | 0.193
CCGAGGAC | -0.19

Excerpt of the above (study 1):
Sequence | fluorescence intensity [a.u.]
TGCGCAACAACTTTACACGTGTTTTTATGTCTAGAAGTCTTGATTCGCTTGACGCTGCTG | 17100
CATACCCAACCTTGGAAAGTGGGTGAAGATATTTGTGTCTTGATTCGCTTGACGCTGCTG | 3580
CTTCTGTAAATTTGAACGGTGGGTGGACGCGCCCCGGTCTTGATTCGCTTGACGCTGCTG | 4310
AAATTACTAAGTTGCATGGTGGGTGACGCCGTATGAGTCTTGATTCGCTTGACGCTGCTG | 5350
CCTTCCGCCAAGGAGCACATGCGGCCCACTAAAACTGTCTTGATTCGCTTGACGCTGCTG | 11500
